Results gathered from unrelated publications.
± marks the error that the study gave.

`CC(C)[C@@H]1NC(=O)c2coc(n2)-c2coc(n2)-c2coc(n2)[C@H](CCN(C)C)NC(=O)c2coc(n2)-c2coc(n2)-c2coc1n2` — result for “melting temperature shift”: 0 °C (salmon testes duplex DNA; UV melting; 15 µM, pH 7.5, with: 50 mM K+; reference: DNA without compound).
`Nc1nc2[nH]c(Cc3ccc(C(=O)N[C@@H](CCC(=O)O)C(=O)O)cc3)cc2c(=O)[nH]1`: “relative binding affinity” under 0.01 (folate receptor alpha, human; RT16 cells; concentration not given, 15 min, 0 °C, with: [3H]folic acid 50 nM; reference: folic acid, higher = stronger binding).
`Nc1nc2c(ncn2[C@@H]2O[C@@H]3COP(=O)(O)O[C@H]3[C@H]2O)c(=O)[nH]1` gave an EC50 of 0.0117 µM (compound antibody; binding, non-acetylated EIA).
`CC(C)[C@@H]1NC(=O)c2coc(n2)-c2coc(n2)-c2cccc(c2)-c2cccc(c2)-c2nc(co2)-c2nc(co2)CNC1=O`: “melting temperature shift” 0.1 °C (salmon testes duplex DNA; UV melting; 15 µM, pH 7.5, with: 150 mM K+; reference: DNA without compound).
For `CCCCOc1cc(CC2CNC(=O)N2)ccc1OC` (stereo not shown), the Ki was 0.14 µM (phosphodiesterase 4, human; enzyme activity, inhibitor; HEK293 expressing CNG C460W/E583M; with: forskolin 0.5 µM).
For `O=C(/C=C/c1ccc(Cn2cc(Cn3cnc4cc(Br)ccc4c3=O)nn2)cc1)NO`, the IC50 was 0.36 µM (HDAC; enzyme activity, inhibitor, fluorogenic; HeLa nuclear extract; 30 min, 37 °C).
The Ki of `COc1ccc(C2CNC(=O)C2)cc1OC1CCCC1` (stereo not shown) is reported as 0.09 µM (phosphodiesterase 4, human; enzyme activity, inhibitor; HEK293 expressing CNG C460W/E583M; with: forskolin 0.5 µM).
Under mRNA level, `CC(=O)N1CCC(NC(=O)NC23CC4CC(CC(C4)O2)C3)CC1` is recorded as “decreased” (IL-6, TNF-alpha, CHOP, TRB3; AR-42J; 60 µM, with: cerulein 10 nM; reference: cerulein alone).
`O=C1CNC(=O)c2coc(n2)-c2coc(n2)-c2cccc(c2)-c2cccc(c2)-c2nc(co2)-c2nc(co2)CN1`: “melting temperature shift” 0 °C (salmon testes duplex DNA; UV melting; 15 µM, pH 7.5, with: 50 mM K+; reference: DNA without compound).
With `O=P(O)(O)O[C@@H]1[C@H](O)[C@H](O)[C@@H](OP(=O)(O)O)[C@H](OP(=O)(O)O)[C@H]1O` the EC50 was 0.0139 ± 0.038 µM (InsP3 receptor 2-1-2 chimera, rat; channel opening, agonist, planar lipid bilayer; 0 mV, with: 200 nM free Ca2+).
For `CN(Cc1ccccc1)S(=O)(=O)c1ccc(CNCc2ccccn2)cc1`, the inhibition was 48% (CXCR4; CXCL12-induced cell invasion, Matrigel invasion; MDA-MB-231; 10 nM (0.01 µM), with: CXCL12 200 ng/mL; reference: reference compound as 100%).
For `C=C[C@@]1(C)CC(=O)[C@]2(O)[C@@]3(C)[C@@H](O)CCC(C)(C)[C@@H]3[C@H](O)[C@H](OC(C)=O)[C@@]2(C)O1`, the EC50 was 0.59 µM (vasopressin V2 receptor L83Q (human); agonist; cells with inducible mutant V2R, gene off; 36 h, counter screen, with: doxycycline 1 µg/mL).
`CC(C)[C@H](N)C(=O)OCCOCn1cnc2c(=O)nc(N)[nH]c21` has an uptake ratio of over 25 (PEPT1 (human); HeLa expressing hPEPT1; concentration not given; reference: hPEPT1 over parental HeLa).
`Nc1nc2c(nc(Br)n2[C@@H]2O[C@@H]3COP(=O)(O)O[C@H]3[C@H]2O)c(=O)[nH]1` has an EC50 of 15.5 µM (cone cGMP-gated channel; ion current, agonist, inside-out patch clamp; after EDTA/EGTA exposure, -40 mV).
The IC50 of `Cc1cccc(C)c1NC(=O)C1CCCN(Cc2ccccc2)C1` (stereo not shown) is reported as 4.5 ± 0.3 µM (Nav1.4, Pelophylax lessonae; sodium current, use-dependent blocker, vaseline gap voltage clamp; skeletal muscle fibres; 10 Hz pulse trains).
Under “melting temperature shift”, `CN(C)CC[C@@H]1NC(=O)c2coc(n2)-c2coc(n2)-c2cccc(c2)-c2cccc(c2)-c2nc(co2)-c2nc(co2)CNC1=O` is recorded as 0.9 °C (salmon testes duplex DNA; UV melting; 15 µM, pH 7.5, with: 50 mM K+; reference: DNA without compound).
For `GKKVITAFAEGLK`, the koff was 5.28 ± 0.67 s⁻¹ (mouse TCR 3.L2; micropipette adhesion; peptide, CD4 T cells 3.L2; zero force).
`C=C[C@@]1(C)CC(=O)[C@]2(O)[C@@]3(C)[C@@H](O)CCC(C)(C)[C@@H]3[C@H](O)[C@H](OC(C)=O)[C@@]2(C)O1` has an EC50 of about 0.5 µM (RXFP3 (human); cAMP level, agonist; HEK-RXFP3 cells; approximate).
For `Oc1ccc(/C=C/c2cccc(O)c2)cc1`, the IC50 was over 25 mg/L (NF-κB (human); reporter gene, inhibitor; SW1353; with: PMA).
For `CSCC[C@H](NC(=O)[C@H](CCCNC(=N)N)NC(=O)[C@H](Cc1ccc(O)cc1)NC(=O)[C@@H]1CCCN1C(=O)CNC(=O)[C@H](CCC(=O)O)NC(=O)[C@H](CC(=O)O)NC(=O)[C@H](CCCCN)NC(=O)[C@H](CCCCN)NC(=O)[C@H](CCC(=O)O)NC(=O)[C@H](C)N)C(=O)N[C@@H](CCC(=O)O)C(=O)N[C@@H](Cc1c[nH]cn1)C(=O)N[C@@H](Cc1ccccc1)C(=O)N[C@@H](CCCNC(=N)N)C(=O)N[C@@H](Cc1c[nH]c2ccccc12)C(=O)NCC(=O)N[C@@H](CO)C(=O)N1CCC[C@H]1C(=O)N1CCC[C@H]1C(=O)N[C@@H](CCCCN)C(=O)N[C@@H](CC(=O)O)C(=O)O`, the EC50 was 0.00226 ± 0.00075 µM (melanocortin 4 receptor (dog); cAMP generation, agonist; HEK-293T transfected; 1 h, 37 °C).
For `CCN(CC)Cc1ccc(S(=O)(=O)N(C)Cc2ccccc2)cc1`, the inhibition was 84% (CXCR4; CXCL12-induced cell invasion, Matrigel invasion; MDA-MB-231; 100 nM (0.1 µM), with: CXCL12 200 ng/mL; reference: reference compound as 100%).
`CC(C)[C@H](N)C(=O)O` has a Ki of 600 µM (Na+-independent amino acid transport, mouse; inhibitor; Ehrlich ascites cells; 1 min, pH 7.4, Na+-free choline medium, with: methionine).
`CN(Cc1ccccc1)S(=O)(=O)c1ccc(CN2CCCC2)cc1` gave an inhibition of 95 to 100% (CXCR4; CXCL12-induced cell invasion, Matrigel invasion; MDA-MB-231; 100 nM (0.1 µM), with: CXCL12 200 ng/mL; reference: reference compound as 100%).
`CC[C@H](C(=O)N1CCCC[C@H]1C(=O)O[C@H](CCc1ccc(OC)c(OC)c1)c1cccc(OCCN2CCOCC2)c1)c1cc(OC)c(OC)c(OC)c1`: “YFP level doubling time” 100 min (YFP-LID fusion; flow cytometry; NIH3T3; concentration not given, after compound washout, with: FKBP(F36V) 5 µM).
`CN(Cc1ccccc1)S(=O)(=O)c1ccc(CN2CCNCC2)cc1` has an inhibition of 78% (CXCR4; CXCL12-induced cell invasion, Matrigel invasion; MDA-MB-231; 10 nM (0.01 µM), with: CXCL12 200 ng/mL; reference: reference compound as 100%).
The inhibition of `O=S(=O)(O)c1cc(N=C=S)ccc1C=Cc1ccc(N=C=S)cc1S(=O)(=O)O` is reported as 100% (band 3 anion exchanger, human; chloride exchange efflux; human erythrocytes; concentration not given, reversible plus covalent binding).
`CCN(CC)Cc1ccc(S(=O)(=O)N(C)Cc2ccc(F)cc2)cc1` has an inhibition of 61% (CXCR4; CXCL12-induced cell invasion, Matrigel invasion; MDA-MB-231; 10 nM (0.01 µM), with: CXCL12 200 ng/mL; reference: reference compound as 100%).
For `CN(C)CCc1cc2cc(c1)CNC(=O)c1coc(n1)-c1coc(n1)-c1cccc(n1)-c1nc(co1)-c1nc(co1)C(=O)NC2`, “melting temperature shift” read 0.5 °C (salmon testes duplex DNA; UV melting; 15 µM, pH 7.5, with: 50 mM K+; reference: DNA without compound).
For `CC(C)=CCC/C(C)=C/Cc1c(O)cc(/C=C/c2ccc(O)cc2O)cc1O`, the IC50 was 22.5 mg/L (NF-κB (human); reporter gene, inhibitor; SW1353; with: PMA).
For `CN(Cc1ccccc1)S(=O)(=O)c1ccc(CN2CCCCC2)cc1`, the inhibition was 94% (CXCR4; CXCL12-induced cell invasion, Matrigel invasion; MDA-MB-231; 10 nM (0.01 µM), with: CXCL12 200 ng/mL; reference: reference compound as 100%).
With `Nc1nc2c(ncn2[C@@H]2O[C@@H]3COP(=O)(O)O[C@H]3[C@H]2O)c(=O)[nH]1` the EC50 was 87 µM (cone cGMP-gated channel; ion current, agonist, inside-out patch clamp; -40 mV, with: calmodulin 200 nM).

For quick reference, copied from above:
For `CN(Cc1ccccc1)S(=O)(=O)c1ccc(CNCc2ccccn2)cc1`, the inhibition was 48% (CXCR4; CXCL12-induced cell invasion, Matrigel invasion; MDA-MB-231; 10 nM (0.01 µM), with: CXCL12 200 ng/mL; reference: reference compound as 100%).
With `O=P(O)(O)O[C@@H]1[C@H](O)[C@H](O)[C@@H](OP(=O)(O)O)[C@H](OP(=O)(O)O)[C@H]1O` the EC50 was 0.0139 ± 0.038 µM (InsP3 receptor 2-1-2 chimera, rat; channel opening, agonist, planar lipid bilayer; 0 mV, with: 200 nM free Ca2+).
For `O=C(/C=C/c1ccc(Cn2cc(Cn3cnc4cc(Br)ccc4c3=O)nn2)cc1)NO`, the IC50 was 0.36 µM (HDAC; enzyme activity, inhibitor, fluorogenic; HeLa nuclear extract; 30 min, 37 °C).
`Nc1nc2[nH]c(Cc3ccc(C(=O)N[C@@H](CCC(=O)O)C(=O)O)cc3)cc2c(=O)[nH]1`: “relative binding affinity” under 0.01 (folate receptor alpha, human; RT16 cells; concentration not given, 15 min, 0 °C, with: [3H]folic acid 50 nM; reference: folic acid, higher = stronger binding).
For `CN(C)CCc1cc2cc(c1)CNC(=O)c1coc(n1)-c1coc(n1)-c1cccc(n1)-c1nc(co1)-c1nc(co1)C(=O)NC2`, “melting temperature shift” read 0.5 °C (salmon testes duplex DNA; UV melting; 15 µM, pH 7.5, with: 50 mM K+; reference: DNA without compound).
